Measurements collected from several papers.
Compare with care: the assays were run in different laboratories. ± marks the error that the study gave.

SMILES	tested on	test	test system	setting	how to read	quantity	result
O=C(Nc1cccc2cccnc12)c1cnccn1	HFF-1	MTT	–	–	–	IC50	> 30000 nM
COc1nnc2ccc(N3CCC(c4ccc(OCCN5CCN(C)C(=O)[C@H]5C)cc4)CC3)nn12	MP38 uveal melanoma BAP1-mutant	cell viability, CellTiter-Glo	–	72 h	–	IC50	88.7 nM
CC(=O)Nc1c(I)c(NC(C)=O)c(I)c(C(=O)O)c1I	human iPSC-derived cardiomyocytes	MyBP-C/MYH ratio, plate-normalised SD score	–	concentration not given, primary screen	direction not given	activity score	3
Cn1cc(-c2ccc(-c3cncc(Cl)c3N3CCC4(CCNC4=O)CC3)cc2)cn1	COLO 205	gene expression, microarray, refers to: ARHGEF39 mRNA	–	concentration not given, 2 h	relative to: untreated cells	log2 fold change	-2.46
COc1cc2c3c(n(CCCN4CCOCC4)c(=O)c2cc1OC)-c1nc2c(cc1C3=O)OCO2	CHLA-32 Ewing sarcoma cells	cytotoxicity, MTS	–	72 h	–	IC50	708 nM
Cc1cc(Nc2ncnc3ccc(NC4=NC(C)(C)CO4)cc23)ccc1Oc1ccn2ncnc2c1	Ba/F3 expressing HER2 S310F	cell growth, inhibitor, CellTiter-Glo	–	–	–	IC50	6.7 nM
CC(=O)O[C@@]12CO[C@@H]1C[C@H](O)[C@@]1(C)C(=O)[C@H](O)C3=C(C)[C@@H](OC(=O)[C@H](O)[C@@H](NC(=O)OC(C)(C)C)c4ccccc4)C[C@@](O)([C@@H](OC(=O)c4ccccc4)[C@H]21)C3(C)C	VCaP-AI, compound-sensitive	cell growth	–	–	–	IC50	0.5 nM
CC[C@]1(O)C[C@@H]2CN(CCc3c([nH]c4ccccc34)[C@@](C(=O)OC)(c3cc4c(cc3OC)N(C)[C@H]3[C@@](O)(C(=O)OC)[C@H](OC(C)=O)[C@]5(CC)C=CCN6CC[C@]43[C@@H]65)C2)C1	KB-C2	cell viability	–	–	–	IC50	713 ± 16.5 nM
Cc1[nH]c2ccccc2c1CCNCc1ccc(/C=C/C(=O)NO)cc1	MP38 uveal melanoma BAP1-mutant	cell viability, CellTiter-Glo	–	72 h	–	IC50	35.8 nM
CCN(CCO)CCCC(C)Nc1ccnc2cc(Cl)ccc12 (stereo not shown)	human PBMC	qRT-PCR, refers to: CXCL10 mRNA	–	with: ssRNA	–	IC50	1900 ± 700 nM
N#CCCCC1=CC2C=CC=CC1C2C1CCCCC1=O (stereo not shown)	normal fibroblasts	cytotoxicity	–	–	–	IC50	389 ± 34 nM
CC(C)C[C@H](NC(=O)C[C@H](O)[C@H](CC(C)C)NC(=O)[C@H](Cc1c[nH]cn1)NC(=O)CNC(=O)[C@@H](NC(=O)[C@H](C)NC(=O)[C@H](Cc1c[nH]c2ccccc12)NC(=O)[C@H](CCC(N)=O)NC(=O)[C@@H](Cc1ccccc1)NC(=O)COCCOCCNC(=O)CN1CCN(CC(=O)O)CCN(CC(=O)O)CCN(CC(=O)O)CC1)C(C)C)C(N)=O [lutetium-177 labelled]	–	–	female BALB/c nu/nu mice, bone	intravenous, 50 pmol, 24 h	–	tissue uptake	0.031 ± 0.008 %ID/g
CC(Nc1nc(N2CCCC2)nc2ccccc12)c1ccccc1 (stereo not shown)	transportin-1/2	FUS nuclear import, high content imaging	HeLa Kyoto reporter	0.05 µM, 2 h	–	cells with nuclear reporter	92.9%
CCOC(=O)CCC1=CC2C=CC=CC1C2C1CCCCC1=O (stereo not shown)	normal fibroblasts	cytotoxicity	–	–	–	IC50	318 ± 29 nM
Cn1cc(CNCC2CCN(c3ncc(C(=O)NO)cn3)CC2)c2ccccc21	MP38 uveal melanoma BAP1-mutant	cell viability, CellTiter-Glo	–	–	–	IC50	6.75 nM
C[C@H](Nc1ccc2c(c1)OCCn1cc(N3C(=O)OC[C@H]3C(F)F)nc1-2)C(N)=O	BT-483	growth rate inhibition, CellTiter-Glo	–	120 h	–	IC50	10000 nM
CC(C)CNC(=S)N/N=C/c1cccc2cc3ccccc3nc12	PATU	cell proliferation, MTT	–	48 h	–	IC50	> 50000 nM
O=C(CCCCCONC(=O)c1nc(-c2ccccc2[N+](=O)[O-])cs1)NO	neonatal foreskin fibroblasts	cytotoxicity, sulforhodamine B	–	72 h	–	IC50	16100 nM
O=C1CCCCC1C1C2C=CC=CC1/C(=C/Cc1ccccc1)C2 (stereo not shown)	normal fibroblasts	cytotoxicity	–	–	–	IC50	267 ± 21 nM
Cc1c(C(=O)O)ccc2c3n(nc12)[C@@H]1[C@H](C3)N(CC2CC2)[C@@]2(C(=O)Nc3cc(Cl)ccc32)[C@H]1c1cccc(Cl)c1F	JAR	cell proliferation, alamarBlue	–	–	–	IC50	1.06 nM
Cc1cc(-c2nc(C(=O)Nc3cc4oc(N5CCOCC5)nc4nc3N3CC[C@@H](O)C3)co2)ccn1	OCI-Ly3 (MYD88 L265P)	cell growth, cell count	–	120 h	–	IC50	1210 nM
Cc1nc(Nc2ncc(C(=O)Nc3c(C)cccc3Cl)s2)cc(N2CCN(CCO)CC2)n1	NCI-H1975 (EGFR L858R/T790M)	cell viability, MTT	–	72 h	–	IC50	100000 nM

SMILES	tested on	test	test system	setting	how to read	quantity	result
C=CC(=O)Nc1cc(Nc2nccc(-c3cn(C)c4ccccc34)n2)c(OC)cc1N(C)CCN(C)C	Ba/F3 EGFR E709K/G719A	cell proliferation	–	72 h	–	IC50	166 ± 16.2 nM
CC(=O)N1c2ccc(-c3ccc(C(=O)O)cc3)cc2[C@H](Nc2ccc(Cl)cc2)C[C@@H]1C	MP38 uveal melanoma BAP1-mutant	cell viability, CellTiter-Glo	–	–	–	IC50	248 nM
CCc1nc(C(N)=O)c(Nc2ccc(N3CCC(N4CCN(C)CC4)CC3)c(OC)c2)nc1NC1CCOCC1	primary AML mononuclear cells, FLT3-ITD positive	cell viability, MTS	–	ex vivo	–	IC50	1650 nM
C=CC(=O)NC1CCN(c2ncc3ncnc(Nc4ccc(Oc5ccc6c(c5)ncn6C)c(C)c4)c3n2)CC1	Ba/F3 expressing HER2 V659E	cell growth, inhibitor, CellTiter-Glo	–	–	–	IC50	7 nM
Cn1nnc2c(C(N)=O)ncn2c1=O	sample A patient-derived glioblastoma	neurosphere formation	–	–	–	IC50	5100 nM
C=CC[C@@H]1/C=C(\C)C[C@H](C)C[C@H](OC)[C@H]2O[C@@](O)(C(=O)C(=O)N3CCCC[C@H]3C(=O)O[C@H](/C(C)=C/[C@@H]3CC[C@@H](O)[C@H](OC)C3)[C@H](C)[C@@H](O)CC1=O)[C@H](C)C[C@@H]2OC	human iPSC-derived cardiomyocytes	MyBP-C/MYH ratio, plate-normalised SD score	–	concentration not given, primary screen	direction not given	activity score	4.1
CC(C)C[C@H](NC(=O)C[C@H](O)[C@H](CC(C)C)NC(=O)[C@H](Cc1c[nH]cn1)NC(=O)CNC(=O)[C@@H](NC(=O)[C@H](C)NC(=O)[C@H](Cc1c[nH]c2ccccc12)NC(=O)[C@H](CCC(N)=O)NC(=O)[C@@H](Cc1ccccc1)NC(=O)COCCOCCNC(=O)CCC(C(=O)O)N1CCN(CC(=O)O)CCN(CC(=O)O)CCN(CC(=O)O)CC1)C(C)C)C(N)=O (stereo partly shown) [lutetium-177 labelled]	–	–	female BALB/c nu/nu mice, pancreas	intravenous, 100 pmol, 24 h, with: PA 300 µg	–	tissue uptake	0.024 ± 0.004 %ID/g
CCCCC[C@@H]1NC(=O)[C@@H]2CCCN2C(=O)[C@H](CC(=O)O)NC(=O)[C@H](Cc2ccc(O)cc2)NC(=O)[C@H](CO)NC(=O)[C@H]([C@@H](C)CC)NC(=O)[C@H](Cc2ccc(-c3ccccc3)cc2)NC(=O)[C@H](CC(C)C)NC(=O)[C@@H]2[C@@H](c3ccccc3)CCN2C(=O)[C@H](NC(=O)[C@H](CCCNC(=N)N)NC(=O)[C@H](CCCNC(=N)N)NC(C)=O)CSCSC[C@@H](C(=O)N[C@@H](CCCNC(=N)N)C(=O)N[C@@H](CCCNC(=N)N)C(N)=O)NC1=O	A-375 (BRAF V600E)	AlphaScreen, refers to: pERK	–	18 h	–	IC50	> 50000 nM
Fc1ccc(NC(=S)N/N=C/c2cccc3cc4ccccc4nc23)cc1	PATU	cell proliferation, MTT	–	48 h	–	IC50	> 50000 nM
COc1c(Cl)cccc1Nc1c(-c2ccncc2OC[C@@H]2COCCO2)[nH]c2c1C(=O)NCC2	Ba/F3 expressing HER2 S310F	cell growth, inhibitor, CellTiter-Glo	–	–	–	IC50	2.8 nM
Cc1c(C)c2c(c(C)c1O)CCC(C)(COc1ccc(CC3SC(=O)NC3=O)cc1)O2 (stereo not shown)	THLE-2, 3D culture	MTT	–	–	–	IC50	70900 ± 87 nM
S=C(N/N=C/c1cccc2cc3ccccc3nc12)Nc1ccccc1	PATU	cell proliferation, MTT	–	48 h	–	IC50	> 50000 nM
CCCCN1C[C@H](O)[C@@H](O)[C@@H](O)[C@H]1CO	sample BB patient fibroblasts	acidic compartment staining, LysoTracker Red imaging	–	216 h	–	IC50	26200 nM
CC(=O)OCCC1=CC2C=CC=CC1C2C1CCCCC1=O (stereo not shown)	normal fibroblasts	cytotoxicity	–	–	–	IC50	517 ± 48 nM
CCOc1cc2ncc(C#N)c(Nc3ccc(OCc4ccccn4)c(Cl)c3)c2cc1NC(=O)/C=C/CN(C)C	Ba/F3 expressing HER2 S310F	cell growth, inhibitor, CellTiter-Glo	–	–	–	IC50	0.3 nM
C=CCO[C@H]1CCN2C(=O)[C@H](NC(=O)[C@H](CCCNC(=N)N)NC(=O)[C@H](CCCNC(=N)N)NC(C)=O)CSCSC[C@@H](C(=O)N[C@@H](CCCNC(=N)N)C(=O)N[C@@H](CCCNC(=N)N)C(N)=O)NC(=O)[C@H](C(C)C)NC(=O)[C@@H]3CCCN3C(=O)[C@H](CC(=O)O)NC(=O)[C@H](Cc3ccc(O)cc3)NC(=O)[C@H](CO)NC(=O)[C@H]([C@@H](C)CC)NC(=O)[C@H](Cc3ccc(-c4ccccc4)cc3)NC(=O)[C@H](CC(C)C)NC(=O)[C@H]12	A-375 (BRAF V600E)	AlphaScreen, refers to: pERK	–	18 h	–	IC50	> 50000 nM
Cc1cnc(-c2ccc(-c3ccc(NC(=O)Nc4c(F)cc(F)cc4F)cc3F)c3c2C(=O)NC3)[nH]1	primary AML mononuclear cells, FLT3-ITD positive	cell viability, MTS	–	ex vivo	–	IC50	401 nM
c1coc(-c2n[nH]cc2-c2ccnc3ccccc23)c1	TPK1 (Candida albicans)	kinase binding, MIB/MS competition	Candida albicans lysate	1 µM	relative to: DMSO	log2 fold change	-0.2
C=CCO[C@H]1CCN2C(=O)[C@H](NC(=O)[C@H](CCCNC(=N)N)NC(=O)[C@H](CCCNC(=N)N)NC(C)=O)CSCSC[C@@H](C(=O)N[C@@H](CCCNC(=N)N)C(=O)N[C@@H](CCCNC(=N)N)C(N)=O)NC(=O)[C@H](CCCCC)NC(=O)[C@@H]3CCCN3C(=O)[C@H](CC(=O)O)NC(=O)[C@H](Cc3ccc(O)cc3)NC(=O)[C@H](CO)NC(=O)[C@H]([C@@H](C)CC)NC(=O)[C@H](Cc3ccc(-c4ccccc4)cc3)NC(=O)[C@H](CC(C)C)NC(=O)[C@H]12	A-375 (BRAF V600E)	AlphaScreen, refers to: pERK	–	18 h	–	IC50	> 50000 nM
COc1ccc(N(C)c2nc(C)nc3ccccc23)cc1OCCCC(=O)NO	MP38 uveal melanoma BAP1-mutant	cell viability, CellTiter-Glo	–	–	–	IC50	17400 nM
Oc1ccccc1-c1n[nH]cc1-c1ccnc2ccccc12	TPK1 (Candida albicans)	kinase binding, MIB/MS competition	Candida albicans lysate	10 µM	relative to: DMSO	log2 fold change	0.54

Some of these lines once more:
SMILES	tested on	test	test system	setting	how to read	quantity	result
CC(=O)O[C@@]12CO[C@@H]1C[C@H](O)[C@@]1(C)C(=O)[C@H](O)C3=C(C)[C@@H](OC(=O)[C@H](O)[C@@H](NC(=O)OC(C)(C)C)c4ccccc4)C[C@@](O)([C@@H](OC(=O)c4ccccc4)[C@H]21)C3(C)C	VCaP-AI, compound-sensitive	cell growth	–	–	–	IC50	0.5 nM
C=CCO[C@H]1CCN2C(=O)[C@H](NC(=O)[C@H](CCCNC(=N)N)NC(=O)[C@H](CCCNC(=N)N)NC(C)=O)CSCSC[C@@H](C(=O)N[C@@H](CCCNC(=N)N)C(=O)N[C@@H](CCCNC(=N)N)C(N)=O)NC(=O)[C@H](C(C)C)NC(=O)[C@@H]3CCCN3C(=O)[C@H](CC(=O)O)NC(=O)[C@H](Cc3ccc(O)cc3)NC(=O)[C@H](CO)NC(=O)[C@H]([C@@H](C)CC)NC(=O)[C@H](Cc3ccc(-c4ccccc4)cc3)NC(=O)[C@H](CC(C)C)NC(=O)[C@H]12	A-375 (BRAF V600E)	AlphaScreen, refers to: pERK	–	18 h	–	IC50	> 50000 nM
Cc1cc(Nc2ncnc3ccc(NC4=NC(C)(C)CO4)cc23)ccc1Oc1ccn2ncnc2c1	Ba/F3 expressing HER2 S310F	cell growth, inhibitor, CellTiter-Glo	–	–	–	IC50	6.7 nM
CCCCN1C[C@H](O)[C@@H](O)[C@@H](O)[C@H]1CO	sample BB patient fibroblasts	acidic compartment staining, LysoTracker Red imaging	–	216 h	–	IC50	26200 nM
O=C1CCCCC1C1C2C=CC=CC1/C(=C/Cc1ccccc1)C2 (stereo not shown)	normal fibroblasts	cytotoxicity	–	–	–	IC50	267 ± 21 nM
